Assay results collected from several papers.
Several values in a cell are separate wells, animals, samples, runs or records. ± gives the spread as reported. Values after ≈ are worked out from the molar mass of the structure shown.

Compound	target or system	test	test system	conditions	how to read	measurement	result
COc1ccccc1-c1n[nH]c2nc(N[C@H]3CC[C@H](NS(=O)(=O)CC(C)C)CC3)ncc12	–	bead binding, competition bead pull-down, measured: LINJ.32.3110	Leishmania donovani extract	10 µM	relative to: vehicle	relative abundance	0.68
NCCO.O=C(O)C(Cl)Cl	Eclipta prostrata	–	–	15 mg/mL, 21 days, pre-emergence, greenhouse	–	herbicidal inhibition	0%
Nc1ncc(-c2cc(-c3cnn(CC(F)(F)F)c3)ncc2F)nc1C(=O)NC1CNCC(F)C1 (centres unmarked)	FLT3 ITD D835V	KINOMEscan	–	1 µM	–	remaining binding	34%
Cc1cc(Oc2nc(N3CC[C@@H](c4ccncc4)C3)ncc2F)[nH]n1	Mycobacterium tuberculosis	–	THP-1, H37Rv non-replicating	30 µM, day 4 plus 1	–	normalised growth	84.3% and 83.8%
COc1ccccc1-c1n[nH]c2nc(NC3CCN(C(=O)Cc4ccc(F)cc4F)CC3)ncc12	–	bead binding, competition bead pull-down, measured: LMJF.25.1420	Leishmania donovani axenic amastigote extract	10 µM	relative to: vehicle	relative abundance	1.06
CC(C)[C@@H]1NC(=O)[C@@H]2CCCN2C(=O)[C@@H](C(C)C)NC(=O)[C@H]2CCCN2C(=O)[C@H](C(C)C)NC(=O)[C@@H]2CCCN2C(=O)[C@@H](C(C)C)NC(=O)[C@H]2CCCN2C(=O)[C@H](C(C)C)NC(=O)[C@@H]2CCCN2C(=O)[C@@H](C(C)C)NC(=O)[C@H]2CCCN2C1=O	–	–	sheep lipid bilayer	10 µM, pH 7.4, 23 °C, with: 10 mM K+ vs Rb chloride	–	bi-ionic potential	26 mV
CC(C)(C)C(=O)OCOP(=O)(OCOC(=O)C(C)(C)C)C1CCCN(O)C1=O (centres unmarked)	OVCAR-5	–	–	–	–	CC50	> 100 µM
CCN(CC)Cc1cc(Nc2c(C)cnc3cc(Cl)ccc23)ccc1O.Cl	West Nile virus	viral replication, Rluc reporter replicon	Vero WNV replicon cells	50 µM, 24 h	–	inhibition	97.9 ± 0.5%
CCCCCCCCCCCC1CC(=O)NC(CC(N)=O)C(=O)NC(Cc2ccc(O)cc2)C(=O)NC(CC(N)=O)C(=O)NC(CCC(N)=O)C(=O)N2CCCC2C(=O)NC(CC(N)=O)C(=O)NC(CO)C(=O)N1 (centres unmarked)	–	calcein leakage	DOPC/CHOL liposomes	concentration not given, with: 20 wt% PEG-8000	–	fusion time constant	12 ± 4 min
CCCSC(SCCC)c1ccc(OCCNS(=O)(=O)c2ccccc2C(F)(F)F)c(OC)c1	Tobacco mosaic virus	curative activity	plant in vivo	–	–	EC50	383.3 ± 0.9 µg/mL (≈ 713 µM)
CCCCCCCCCCCC(=O)C(C)C(=O)N1CCC[C@H]1C(=O)NC(C)(C)C(=O)NC(C)(C)C(=O)NC(C)(C)C(=O)N[C@](C)(CC)C(=O)NCCC(=O)N[C@@H](C)C(=O)N[C@](C)(CC)C(=O)N[C@@H](C)C(=O)N[C@@H](CC(C)C)C(=O)N[C@](C)(CC)C(=O)NCCC(=O)N[C@@H](C)C(=O)N[C@](C)(CC)C(=O)NCCC(=O)N[C@@H](C)C(=O)NC(C)(C)C(=O)NC(C)(C)C(=O)NC(C)(C)C(=O)N[C@@H](C)C(=O)N[C@@H](CC(=O)O)C(=O)O (some centres unmarked)	chitin	pull-down, LC-MS	–	1 h, pH 7.0, 30 °C, with: chitin 1 mg/mL	higher = more bound	bound compound (MS peak area)	0 a.u.
Cc1cc(C(=O)Nc2nc3cccc(C)c3n2[C@H]2CCCCN(C(=O)/C=C/CN(C)C)C2)ccn1	Trypanosoma brucei	–	CLK1 C215S overexpressing	50 x EC50	–	survival	99.5% and 81.5% and 73.5%
CN(C(=O)c1ccn2ncc(-c3ccc(C(N)=O)cc3)c2c1)c1ccc(C#N)cn1	Cryptosporidium parvum	–	UGA1 Nluc, IFN-gamma knockout C57BL/6 mice, faeces	oral, 10 mg/kg daily, 312 h post infection, treatment days 11-17	higher means more parasites	faecal Nluc luminescence	8110 a.u. and 4550 a.u. and 247000 a.u. and 3180 a.u.
COc1cc(C(SC(C)C)SC(C)C)ccc1OCCNS(=O)(=O)c1cccc(C(F)(F)F)c1	Tobacco mosaic virus	inactivation activity	plant in vivo	–	–	EC50	936.7 ± 2.7 µg/mL (≈ 1740 µM)
CN1C(=O)C(C2C3=C(CCCC3=O)Oc3ccc(Br)cc32)C(=O)N(C)C1=O (centres unmarked)	3T3-L1 preadipocytes	adipogenesis, Oil Red O staining	–	IC20, 14 days, single replicate	–	lipid content	0.917 OD492
CCCSC(SCCC)c1ccc(OCCNS(=O)(=O)c2ccc(F)cc2)c(OC)c1	Tobacco mosaic virus	protective activity	plant in vivo	–	–	EC50	515.2 ± 4.3 µg/mL (≈ 1060 µM)
CC1CCC2C(C)C(CCCOC(=O)C(Cc3ccc(N(CCCl)CCCl)cc3)NC(=O)OC(C)(C)C)OC3OC4(C)CCC1C32OO4 (centres unmarked)	DU-145	cell growth or viability, CCK-8	–	–	–	IC50	> 50 µM
